Published values of several laboratories.
Each numbered part is a random draw from the data of one study; scales do not carry over between parts. Positions count from the first letter of the parent shown.
Chain of UniProt Q9C0B0 (30-357, looked up): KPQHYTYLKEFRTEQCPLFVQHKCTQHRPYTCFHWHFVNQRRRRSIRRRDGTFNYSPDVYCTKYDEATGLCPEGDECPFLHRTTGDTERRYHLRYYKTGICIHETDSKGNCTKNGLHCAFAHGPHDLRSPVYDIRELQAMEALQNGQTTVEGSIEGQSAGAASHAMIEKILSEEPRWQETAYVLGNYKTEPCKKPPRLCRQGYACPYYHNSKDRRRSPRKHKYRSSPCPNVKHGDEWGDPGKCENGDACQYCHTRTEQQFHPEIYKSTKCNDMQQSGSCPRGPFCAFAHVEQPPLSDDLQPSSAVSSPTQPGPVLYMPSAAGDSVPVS

Set 1
Target: ABI1, truncated, D143A, DHFR fusion (Arabidopsis thaliana)
Technique: DHFR PCA, deep sequencing
Matrix: yeast
Notes: methotrexate growth selection, single substitutions
Together with: (+)-ABA 200 µM
Relative to: wild-type fitted maximum
Direction: higher = stronger binding
Starting sequence: PYL1, truncated, DHFR fusion (Arabidopsis thaliana); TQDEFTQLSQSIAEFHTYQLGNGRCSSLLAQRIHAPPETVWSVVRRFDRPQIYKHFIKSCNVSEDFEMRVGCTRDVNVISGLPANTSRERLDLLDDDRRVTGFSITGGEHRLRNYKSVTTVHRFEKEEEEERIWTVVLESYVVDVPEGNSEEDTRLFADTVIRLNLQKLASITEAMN; partner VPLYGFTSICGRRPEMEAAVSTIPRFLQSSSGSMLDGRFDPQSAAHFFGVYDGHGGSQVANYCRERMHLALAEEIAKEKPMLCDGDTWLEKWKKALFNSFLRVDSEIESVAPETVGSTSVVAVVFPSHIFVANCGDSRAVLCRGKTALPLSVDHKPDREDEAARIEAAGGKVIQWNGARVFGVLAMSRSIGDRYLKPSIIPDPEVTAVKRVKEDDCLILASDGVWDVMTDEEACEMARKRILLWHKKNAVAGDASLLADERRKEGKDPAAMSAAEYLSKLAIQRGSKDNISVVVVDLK
Change	relative binding score [%]
C72Q	102
E14I	85.2
R45E	11
V118I	99.7
S42M	91.2
T39Q	103
E152D	97.6
T120Y	-0.676
F5T	96.3
N114M	40.4
L82P	85.3
T154K	15.7
A84I	19.5
H110K	13
V142D	81.8

Set 2
Target: CCNA2, cyclin fold, Cln2 fusion (human)
Technique: yeast growth competition, sequencing
Matrix: yeast
Notes: strong parent motif
Relative to: not given
Direction: higher = stronger binding
Starting sequence: REPIN1 docking peptide (human); QSFRGWVALVLHL
Change	normalised enrichment score
F3A	1.8
G5A	2.3
R4A	1.01
H12A	1.41
V7A	2.47
Q1A	1.36

Set 3
Target: Sal-like protein 4, full length isoform B (SALL4, Homo sapiens, UniProt Q9UJQ4-2, residues 1-616)
Technique: universal PBM
Molecule type: double-stranded DNA, one strand shown
Matrix: in vitro
Tested at: not given
Notes: 8-mer, flanks averaged, mean of replicates
Direction: higher = stronger binding
Oligonucleotide	E-score
CTACCCTC	-0.131
CGACGACC	-0.22
ATGCCTTG	-0.0315
AAAGCACC	-0.147
TGTGTTAA	0.211
ACGAGGAA	0.0551
CCCTATGA	-0.0092
CTGGCGAC	-0.255
CTGCGCGA	-0.15
CTGAACTC	-0.148
CCAGCCTC	-0.252
AACGAATA	0.199
GGATGATA	0.183
ATGAATCA	0.219
CTTCCTAC	-0.15
AGGCCACA	-0.256
AATACTCC	0.0636
AATGGCTG	-0.0408
ACGAGTGA	-0.172
TCGTGCAA	0.132
ACTGATTG	-0.0464
AGGGGCTC	-0.306
CAGATAAC	0.155
CAGGGTTC	-0.206

Set 4
Target: CREB3L4, bZIP domain (human)
Technique: DHFR protein complementation
Matrix: yeast
Notes: single substitutions, most at no-binding floor
Relative to: wild-type JUN-FOS pair
Direction: higher = stronger binding
Starting sequence: JUN, bZIP domain (human); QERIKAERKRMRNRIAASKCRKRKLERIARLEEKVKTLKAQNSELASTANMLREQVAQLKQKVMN; partner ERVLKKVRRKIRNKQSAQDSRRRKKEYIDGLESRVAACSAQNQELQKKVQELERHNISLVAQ
Change	binding fitness [natural log]
L31N	-1.62
A29K	-1.39
I28K	-1.55
I28S	-1.48
M51R	-1.35
A29N	-1.41
M51K	-1.49
K34P	-1.49
Q41G	-1.52
V56L	-1.53
E44N	-1.47
L45M	-1.54
L59P	-1.5
N42D	-1.43
S43W	-1.51
V35R	-1.53

Set 5
Target: Interferon regulatory factor 5, full length, phosphomimetic (IRF5, Homo sapiens, UniProt Q13568-2, residues 1-514, K96S/S451D/S453D/S456D/S462D)
Technique: protein-binding microarray
Molecule type: double-stranded DNA, one strand shown
Matrix: in vitro
Tested at: 250 nM
Notes: 60-bp whole probe
Together with: salmon DNA 0.4 mg/ml
Relative to: random background probes
Direction: higher = stronger binding
All sequences stand within: GCCTAGCAC … GTCTTGATTCGCTTGACGCTGCTG
Oligonucleotide	log fluorescence
TTCGATTCCAGTTTCGATTAGTGCTAG	9.88 z-score
GACGGTTTCGGGACAGGGGACGTGCTA	5.07 z-score
AAATATTTACCTCTCACGCAGTGCTAG	0.275 z-score
CTTTGCTCATTTTTCAGGGAGTGCTAG	0.398 z-score
TTAGAACTGAGATTGGATTAGTGCTAG	0.0551 z-score
TATAATATATATTCATATATGTGCTAG	0.761 z-score
TTAGGTCTCGGACTGGGTTCGTGCTAG	-0.372 z-score
TTAGGACTGGACTTTCGGTTAGTGCTA	9.01 z-score
CTGGTCCTCCTGACTGGGGTGGTGCTA	-0.281 z-score
GACGGTATCCTACTGCTGAGGTGCTAG	-0.248 z-score
TTAGGTCTCGGTTTCGCTTAGTGCTAG	4.85 z-score
GACGGTCTCCTTATCGTGACGTGCTAG	-0.275 z-score
GGTTTTCTCTATTGCTTTCTGTGCTAG	3.35 z-score
TCATGATTGAATCTCCCACTGTGCTAG	0.00517 z-score
GACGAACTGGGCACTGGAGACGTGCTA	-0.494 z-score
GACGATATCAGTTACGAGACGTGCTAG	1.32 z-score

Set 6
Target: RNA binding protein fox-1 homolog 2, RRM domain, GST-SBP tag (RBFOX2, Homo sapiens, UniProt O43251-10, residues 100-194)
Technique: RNA Bind-n-Seq
Molecule type: RNA
Matrix: in vitro
Tested at: 365 nM
Notes: natural RNA segment, single round, ends assumed
Relative to: no-protein control
Direction: higher = stronger binding
Construct (chain): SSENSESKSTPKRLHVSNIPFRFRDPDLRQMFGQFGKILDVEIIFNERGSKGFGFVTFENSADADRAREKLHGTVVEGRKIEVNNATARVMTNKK
Oligonucleotide	RBNS enrichment (R)
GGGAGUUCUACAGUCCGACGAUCAGCUCUGUCUGACCCCACACUCUCCAUUUUCCCCAGCCAAGGCAGACAGCAGCACUAGCAGACGGUCUUAGAACCUUCACACUGUCUCUACCACUACAUGGAAUGACAUAUGGAAUUCUCGGGUGCCAA	0.509
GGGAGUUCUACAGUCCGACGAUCAGUGUGCGUGCGUUUGUGCCGAGCUUCUAUUUCAUAUUGCAAAUAUAAAUAAAGGAAGGCAGUUUACAUUCUGCUGGUCAGACCUUACGUUCUGGGAUGCGGGGUGGGGAUGGAAUUCUCGGGUGCCAA	0.646
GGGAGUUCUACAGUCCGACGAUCCCUCUGACAUACUCCCCACACCCAGUUGAUGGCUUUCCGUAAUAAAAAGAUUGGGAUUUCCUUUUGAUUGCGCGUUUGUGUGUUUCUGUAUUAGAAAAGCCUGACAACUGUGGAAUUCUCGGGUGCCAA	0.443
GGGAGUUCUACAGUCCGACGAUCCCGCCACCAAGAAUCCAAAACCUAUUUUUGACUUGGAGAGACUUGCUUUUGUUGGUUCCGCCCGUGGAGACGACGAUAGUGUUUCUGUAUAAUAAAGUGUCUGCCGGCUCUGGAAUUCUCGGGUGCCAA	0.293
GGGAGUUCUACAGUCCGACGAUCUCAAUUUUGACUUAAUGUGAUUACUGCUCUAUUCCAAAAAGGUUGCUGUUUCACAAUACCUCAUGCUUCACUUAGCCAUGGUGGACCCAGCGGGCAGGUUCUGCCUGCUUUGGAAUUCUCGGGUGCCAA	0.243
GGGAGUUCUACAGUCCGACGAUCGUUGCCACCAACCACCACCACAGGUGGCCUUAUGGCUCUUCCUGGAUGUUCGAUUCAUGUAAGUGACCUACCUGCUGAUGAUCCACAAAUAAUACUUUAGGGUGGCACUGUGGAAUUCUCGGGUGCCAA	0.284
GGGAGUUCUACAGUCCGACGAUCGAUACCAAGACCUGUCUGUUGGAUCUGUUUUGUUGAGAUAAACUGAUGUCCUUACAUUUCAUUUGUACCUAAACCAUUUGCUAUCGUUUAGACUUUCCACCCCCCACCCCUGGAAUUCUCGGGUGCCAA	0.302
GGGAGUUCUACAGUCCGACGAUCCGCCCCUUGUGCUCGAAGUGUUUGGCAAUGAGAUCUCCUGACUAGGACAGCCUGUGGCGGUGCCUGGGUGGGGCUGCUCCUCCAGGGCCACGUGCCAGGCCCGGGGCUGGUGGAAUUCUCGGGUGCCAA	1.56
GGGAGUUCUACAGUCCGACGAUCCUGAGCUUGGUAUUUGUCAUGUGCCAACUCUGACUCUGAGGUGGGCAGUGAGGGAAGCAGCCCCGGGCCUGCUUGCUUCCUGUCCCCGAAAUGUUCGUUUCUUCUGAAGUUGGAAUUCUCGGGUGCCAA	0.368
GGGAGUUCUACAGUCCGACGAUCCCGGAACCAGAAGUGACGCGACCCCCCUCCCUCUCACUCCUCUUGCCCUCUGCUUUACUCUCAUGUGGCAAACGUGCGGCUCGUGGUGUGAGUGCCAGAAGCUGCCUCCGUGGAAUUCUCGGGUGCCAA	0.398
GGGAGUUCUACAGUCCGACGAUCAAAGGCUGCCCAGAAAAGGAAAAAUAGUUCCCCGCUUCCUGCCGAUGGACCGCAGUGCGCUCUGCUCUGGCGCUUUGUAACUCGCUCCUCCCUCUUCGGGGGCAGACCCCUGGAAUUCUCGGGUGCCAA	0.334
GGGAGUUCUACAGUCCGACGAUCUCUCAGAAUGGGAGACCGAGCGCAGGUUAGGCACCCCUCCCCCUUGCAUCUGUGAGUCCCUCUGGGCGGCUCGUGUACUGAUCGGAUCUGUGAGUCCCUCUGGGCGGCUCUGGAAUUCUCGGGUGCCAA	0.428

Other studies, line by line
Substance	target	test	test system	setting	how to read	measurement	result
GGGAGUUCUACAGUCCGACGAUCAUUCCGAAUGUUAAUAAAUUGCUCUGAGUUUCCUCAAGUCCAUUUUGUAAGAUCAGACCACCGGUGGGUGUUGUUUCUUUUAAGUGUGUGUACUGUGUCCAAUGUUACAUUUUCCGAAGUCAACAGAGGAUUGAGCAUCA	RING finger protein unkempt homolog, zinc fingers 1-6, SBP tag (UNK, Homo sapiens, UniProt Q9C0B0, residues 30-357)	RNA Bind-n-Seq	RNA, in vitro	100 nM, RNA with constant flanks, ends assumed	relative to: input RNA pool, higher = stronger binding	bound/input enrichment	0.548 ratio
PhoQ, residues 284 288 289 292 302 303 TSTLRA	PhoP, residues 12 14 15 18 19 VHSCL (Escherichia coli, UniProt P23836)	Sort-seq, refers to: YFP reporter	E. coli	PhoQ-PhoP variant library, together with: 10 µM Mg2+	relative to: high Mg2+ state, higher = stronger signaling	fold induction	1.2

A few entries again (set 3):
Oligonucleotide	E-score
GGATGATA	0.183
AGGGGCTC	-0.306
CGACGACC	-0.22
ACGAGTGA	-0.172
ACGAGGAA	0.0551
TCGTGCAA	0.132
ATGAATCA	0.219
CTACCCTC	-0.131
AACGAATA	0.199
CCCTATGA	-0.0092
ATGCCTTG	-0.0315
AATACTCC	0.0636
AATGGCTG	-0.0408
